Experimental data from different studies.

Cc1c(C(=O)O)ccc2c3n(nc12)[C@@H]1[C@H](C3)N(CC2CC2)[C@@]2(C(=O)Nc3cc(Cl)ccc32)[C@H]1c1cccc(Cl)c1F
adverse event incidence (phase Ia trial, measured: Pyrexia; cancer patients; oral, dose not given, all patients all grades): 14.8%

FC(F)(F)c1ccc(CNc2ccc(Cc3c[nH]c4ncc(Cl)cc34)cn2)cn1
adverse event incidence (measured: periorbital oedema; patients with advanced solid tumours; oral, dose not given, grade 3 and 4, possibly related to drug): 0%

CC(C)n1c(Nc2cccnc2)nc2cnc(Nc3ccc(N4CCN(C)CC4)cc3)nc21
adverse event incidence (measured: Headache; healthy male subjects; oral, 150 mg, with: rifampin): 0%

Cc1c(Cl)c(C)[n+]([O-])c(Cl)c1-c1noc(-c2cc(O)c(O)c([N+](=O)[O-])c2)n1
adverse event incidence (measured: Severe severity; healthy Chinese subjects; oral, 50 mg, 10 days): 0%

Cc1ccc(Sc2ccccc2N2CCNCC2)c(C)c1
adverse event incidence (any TEAE; healthy adult men; oral, 5 mg single dose, 10 days): 0%

CC(=O)O[C@H]1C(=O)[C@@]2(C)[C@H]([C@H](OC(=O)c3ccccc3)[C@]3(O)C[C@H](OC(=O)[C@H](O)[C@@H](NC(=O)c4ccccc4)c4ccccc4)C(C)=C1C3(C)C)[C@]1(OC(C)=O)CO[C@@H]1C[C@@H]2O
adverse event incidence (measured: Hypophosphataemia; patients with advanced solid tumours; intravenous, dose not given, grade 1 and 2, possibly related to drug): 6%

CNC(=O)c1ccc(-c2cnc3ncc(Cc4ccc5ncccc5c4)n3n2)cc1F
adverse event incidence (phase 1 clinical trial, measured: peripheral edema; dose escalation cohort; oral, dose not given, grade 3 or 4): 5%

O=C1CCc2ccc(OCCCCN3CCN(c4cccc(Cl)c4Cl)CC3)cc2N1
adverse event incidence (measured: Akathisia; patients, CYP2D6 intermediate metabolizers; dose not given, long-acting oral or depot): 8.5%

Excerpt of the above:
CC(=O)O[C@H]1C(=O)[C@@]2(C)[C@H]([C@H](OC(=O)c3ccccc3)[C@]3(O)C[C@H](OC(=O)[C@H](O)[C@@H](NC(=O)c4ccccc4)c4ccccc4)C(C)=C1C3(C)C)[C@]1(OC(C)=O)CO[C@@H]1C[C@@H]2O
adverse event incidence (measured: Hypophosphataemia; patients with advanced solid tumours; intravenous, dose not given, grade 1 and 2, possibly related to drug): 6%
